Measured values gathered from unrelated publications.
Lines come from different studies, so protocols differ. “And” joins repeats or separate records; there may be more than shown. ± marks the error that the study gave.

Molecule = [123I]c1cncc(OC[C@@H]2CCN2)c1; assay = SPECT; system = human, brain cortex; conditions = intravenous bolus plus infusion, 8.1 mCi; scale = reference: plasma; measurement = tissue/plasma ratio; result = 18.7
Molecule = CC(=O)N[C@H](CCCCNC(=O)C(C)F)C(=O)N[C@@H](CS)C(=O)N[C@@H](CS)C(=O)N[C@@H](CCC(=O)O)C(=O)N[C@@H](Cc1c[nH]cn1)C(=O)N[C@H](Cc1ccccc1)C(=O)N[C@@H](CCCNC(=N)N)C(=O)N[C@@H](Cc1c[nH]c2ccccc12)C(=O)N[C@@H](CS)C(=O)N[C@@H](CCCNC(=N)N)C(=O)N1CCC[C@H]1C(=O)N[C@H](C(N)=O)C(C)C (some centres unmarked) [fluorine-18 labelled]; system = C57BL/6 mice, male, B16-F10 tumour, intestine; conditions = intravenous, 4 h; measurement = tissue uptake; result = 0.29 ± 0.18 %ID/g
Molecule = CC1N=C(c2ccccc2F)c2cc(Nc3ccc([N+](=O)[O-])cc3)ccc2NC1=O (centres unmarked); assay = shake flask; system = PBS; conditions = 24 h, pH 7.4; measurement = solubility; result = < 1 µM
Molecule = CC(C)N(CCCCOCC(=O)NS(C)(=O)=O)c1cnc(-c2ccccc2)c(-c2ccccc2)n1; system = human, PAH patients, plasma; conditions = oral, population PK estimate; measurement = absorption lag time; result = 0.67 h
Molecule = CS(=O)(=O)CCCn1c(Cn2c(=O)n(CC(F)(F)F)c3ccncc32)cc2cc(Cl)ccc21; system = RSV-infected infants; conditions = concentration not given, mid-high dose cohort; measurement = patients with low MCH; result = 25%
Molecule = CCOC(=O)C1=C(CN2CCOCC2)NC(c2nccs2)=NC1c1ccc(F)cc1Br (centres unmarked); system = human; conditions = concentration not given, 8 days; measurement = maximum ALT; result = 511 IU/mL
Molecule = CC[C@H](C)CCCCC(=O)N[C@@H](CCN)C(=O)N[C@H](C(=O)N[C@@H](CCN)C(=O)N[C@H]1CCNC(=O)[C@H]([C@@H](C)O)NC(=O)[C@H](CCN)NC(=O)[C@H](CCN)NC(=O)[C@H](CC(C)C)NC(=O)[C@@H](Cc2ccccc2)NC(=O)[C@H](CCN)NC1=O)[C@@H](C)O; system = ND4 Swiss Webster mouse, female, serum; conditions = intravenous, 3 mg/kg, aqueous solution; measurement = Vss; result = 0.373 L/kg
Molecule = CN[C@@](C)(C[18F])C(=O)O; system = SCID mouse DU-145 xenograft, spleen; conditions = 60 min, post injection; measurement = tissue uptake; result = 9.3 ± 1.9 %ID/g
Molecule = COc1ccc(C[C@@H]2NC(=O)[C@H]([C@@H](C)O)NC(=O)[C@@H]3[C@@H]4CCN3C(=O)[C@@H]3Cc5cn(c6ccc(F)cc56)CCCCCCN(Cc5ccc(cc5)CCNC(=O)[C@]5(C)CCCN5C2=O)C(=O)CCC(=O)N[C@@H](C)C(=O)N[C@H](CNC(=O)CCCCC[N+](C)(C)C)C(=O)N[C@@H](Cc2cccc(c2)CNC(=O)CO4)C(=O)N3)cc1; system = fasted healthy humans, plasma; conditions = oral, 100 mg single dose, with 1800 mg Labrasol, geometric mean; measurement = AUC(0-t); result = 1.02 µM·h
Molecule = O[C@H]1CCCN[C@@H]1CCCn1cnc2c(Cl)c(Cl)ccc21; system = human, plasma; conditions = oral, 300 mg, single dose, healthy volunteers; measurement = MRT; result = 9.75 h
Molecule = CC(C)C[C@H](NC(=O)[C@H](CCC(=O)O)NC(=O)[C@H](CCC(=O)O)NC(=O)[C@H](CC(=O)O)NC(=O)[C@H](CCC(=O)O)NC(=O)[C@H](CCC(=O)O)NC(=O)[C@H](CCC(=O)O)NC(=O)[C@@H](N)CC(=O)O)C(=O)O; system = rat, CSF; conditions = intranasal, 5.5 mg/kg, 60 min; measurement = concentration; result = 1.03 ng/mL
Molecule = CC(C)c1nc(CN(C)C(=O)N[C@H](C(=O)N[C@@H](Cc2ccccc2)C[C@H](O)[C@H](Cc2ccccc2)NC(=O)OCc2cncs2)C(C)C)cs1; system = healthy human volunteers, plasma; conditions = oral, dose not given, alone, escitalopram interaction study; measurement = AUC(0-24); result = 6780 ng·h/mL
Molecule = O.[C-]#[O+].[C-]#[O+].[C-]#[O+].[Re+].c1ccc(-c2ccnc3c2ccc2c(-c4ccccc4)ccnc23)cc1; assay = RP-HPLC C18 column, item: free diimine ligand; system = MeCN:water 40:60, 0.1% TFA; conditions = isocratic elution; measurement = capacity factor; result = > 10
Molecule = CCCCCCCCCC(=O)N[C@@H](Cc1c[nH]c2ccccc12)C(=O)N[C@H](CC(N)=O)C(=O)N[C@@H](CC(=O)O)C(=O)N[C@@H]1C(=O)NCC(=O)N[C@@H](CCCN)C(=O)N[C@@H](CC(=O)O)C(=O)N[C@H](C)C(=O)N[C@@H](CC(=O)O)C(=O)NCC(=O)N[C@H](CO)C(=O)N[C@@H]([C@H](C)CC(=O)O)C(=O)N[C@@H](CC(=O)c2ccccc2N)C(=O)O[C@@H]1C; system = male Wistar rat, plasma; conditions = subcutaneous, 50 mg/kg, single dose; measurement = elimination rate constant; result = 0.44 ± 0.06 h⁻¹
Molecule = CCCCCOc1ccc(-c2ccc(-c3ccc(C(=O)N[C@H]4C[C@@H](O)[C@@H](O)NC(=O)[C@@H]5[C@@H](O)[C@@H](C)CN5C(=O)[C@H]([C@@H](C)O)NC(=O)[C@H]([C@H](O)[C@@H](O)c5ccc(O)cc5)NC(=O)[C@@H]5C[C@@H](O)CN5C(=O)[C@H]([C@@H](C)O)NC4=O)cc3)cc2)cc1; system = patients aged sample A to <sample B years, plasma; conditions = intravenous, loading 200 then 100 mg daily; measurement = AUC(0-24) steady state median; result = 75800 ng·h/mL
Molecule = COC(=O)N[C@H](C(=O)N1CCC[C@H]1C(=O)Nc1ccc([C@@H]2CC[C@@H](c3ccc(NC(=O)[C@@H]4CCCN4C(=O)[C@@H](NC(=O)OC)C(C)C)cc3)N2c2ccc(C(C)(C)C)cc2)cc1)C(C)C; system = healthy volunteers; conditions = oral, dose not given, with digoxin; measurement = AUCtau; result = 1460 ng·h/mL
Molecule = CC(=O)c1c(O)c(C)c(O)c(Cc2c(O)c3c(c(C(=O)/C=C/c4ccccc4)c2O)OC(C)(C)C=C3)c1O; system = Balb/C mice, male, plasma; conditions = oral and intravenous; measurement = half-life; result = > 2 h
Molecule = eremomycin pyrrolidide; assay = pseudoallergic reaction; system = male CBA mouse; conditions = intravenous, maximum tolerated dose, together with: concanavalin A; scale = reference: control group; measurement = inflammation reaction index; result = 5.5%
Molecule = C[C@H](Cn1cnc2c(N)ncnc21)OCP(=O)(O)O; target or system = human alphaherpesvirus 2; assay = virus production; system = human monocytes/macrophages; conditions = 20 µg/mL, 6 days; measurement = inhibition; result = 96%
Molecule = Oc1cccc2ccccc12; assay = fish short-term reproduction; system = Oryzias latipes, male, water, flow-through; conditions = 80.0 µg/L, end of exposure; measurement = body length; result = 39.2 ± 1.1 mm
Molecule = Ac-KKKRKV-OH (N-acetyl); system = C57BL/6J mouse; conditions = intravenous, 2 mg, 24 h; measurement = survival; result = 100%
Molecule = CCCCCCCC[N+](C)(C)CCCCCCCC; assay = substrate depletion; system = human liver microsomes; conditions = 0.5 µM, 0 to 3 h, 37 °C, together with: NADPH; measurement = intrinsic clearance; result = 1.05 mL/h/mg protein
Molecule = CSCC[C@@H]1NC(=O)[C@H](CC(=O)O)NC(=O)CNC(=O)[C@H](CCCNC(=N)N)NC(=O)[C@H](C)NC(=O)[C@H](CCC(=O)O)NC(=O)[C@H](CCCNC(=N)N)NC(=O)[C@@H]2CSSC[C@@H]3NC(=O)[C@H](CO)NC(=O)[C@H]([C@@H](C)O)NC(=O)[C@@H]4CCCN4C(=O)[C@H](C)NC(=O)[C@H](Cc4c[nH]c5ccccc45)NC(=O)[C@H](CC(=O)O)NC(=O)CNC(=O)[C@H](CCCNC(=N)N)NC(=O)CNC(=O)[C@H](CCC(N)=O)NC(=O)[C@@H]4CCCN4C(=O)[C@@H](NC(=O)CNC(=O)C(C)F)CSSC[C@H](NC(=O)CNC(=O)[C@H](C)NC(=O)[C@H](CC(C)C)NC(=O)[C@H](CSSC[C@@H](C(=O)NCC(N)=O)NC(=O)[C@H]([C@@H](C)O)NC(=O)[C@H](CCCNC(=N)N)NC(=O)[C@@H]4CCCN4C1=O)NC(=O)[C@H](CC(=O)O)NC(=O)[C@H](CO)NC(=O)[C@H](CC(=O)O)NC(=O)[C@H](CCC(N)=O)NC(=O)[C@H](CO)NC3=O)C(=O)N[C@@H](C(C)C)C(=O)N2 (some centres unmarked) [fluorine-18 labelled]; system = nude mice U-87 MG xenograft, tumor; conditions = intravenous, 0.5 h; measurement = tissue uptake; result = 3.76 ± 0.59 %ID/g
Molecule = CCCCCCCCCCCCCCCC[N+](C)(C)CCCCCCCCCCCCCCCC; assay = in vitro-in vivo extrapolation; system = human; measurement = hepatic clearance; result = 0.328 mL/h/g liver
Molecule = CC[C@H](C)[C@H](NC(=O)[C@@H](N)CCCNC(=N)N)C(=O)N[C@H](C(=O)N1CCC[C@H]1C(=O)N[C@@H](C)C(N)=O)C(C)C; system = human, plasma; conditions = intravenous, 0.15 mg/kg, single dose, healthy volunteers; measurement = MRT; result = 0.09 h
Molecule = Cc1sc2c(c1C)C(c1ccc(Cl)cc1)=N[C@@H](CC(=O)OC(C)(C)C)c1nnc(C)n1-2; assay = LC-MS; system = Ringer's solution; conditions = 50 ng/mL, time not given, glass vessel, glass vial; measurement = recovery vs nominal; result = 62.5% and 37%
Molecule = COc1ccc(-c2cc(=O)c3c(OC)c(OC)c(OC)cc3o2)cc1; system = C57BL/6 mouse, male, feces; conditions = oral, 1% w/w in diet, 6 weeks, orange peel extract diet; scale = reference: content in orange peel; measurement = tissue to peel content ratio; result = 42.8%
Molecule = O=C(c1ccc(F)c(F)c1Nc1ccc(I)cc1F)N1CC(O)([C@@H]2CCCCN2)C1; assay = item: retinal detachment; system = human patients; conditions = oral, 1 mg/kg, dose expansion, grade G1; measurement = treatment-related adverse events; result = 0%
Molecule = CC[C@H](C)[C@H](NC(=O)[C@H](Cc1ccccc1)NC(=O)[C@H](CC(=O)O)NC(=O)[C@H](CCCNC(=N)N)NC(=O)[C@H](Cc1ccccc1)NC(=O)[C@H](CC1CCCCC1)NC(=O)[C@H](CCCCN)NC(=O)[C@H](CO)NC(=O)[C@H](CC(C)C)NC(=O)[C@H](CCCNC(=N)N)NC(=O)[C@H](CCSC)NC(=O)[C@H](C)N)C(=O)N[C@@H](CC(C)C)C(=O)N[C@@H](CCC(N)=O)C(=O)N[C@@H](CCCNC(=N)N)C(=O)N[C@@H](CCCCN)C(=O)N[C@@H](CCCCN)C(=O)O; system = rabbit erythrocytes; conditions = concentration not given, 30 min, 37 °C; scale = reference: Triton X-100; measurement = hemolysis; result = not toxic
Molecule = CNC(=O)c1ccc(-c2cnn3ccc(C(=O)N(C)c4ccc(Cl)c(C(=O)OC)c4)cc23)cc1; system = beagle dogs, both sexes, plasma; conditions = oral, 15 mg/kg/day, day 14; measurement = Cmax; result = 20 ng/mL
Molecule = C[C@@H]1COCCN1c1cc(C2([S@](C)(=N)=O)CC2)nc(-c2cc[nH]c3nccc2-3)n1; system = patients with advanced solid tumours; conditions = oral, 20 mg twice daily, days 4 to 13 of 10-day cycle, phase I dose escalation, together with: carboplatin AUC5; measurement = tolerability; result = not toxic
Molecule = O=C(O[C@@H]1Cc2c(O)cc(O)cc2O[C@@H]1c1cc(O)c(O)c(O)c1)c1cc(O)c(O)c(O)c1; assay = cell viability, MTT; system = mouse lung slices; conditions = 48 h; measurement = CC50; result = > 500 µM

A few entries again:
Molecule = C[C@H](Cn1cnc2c(N)ncnc21)OCP(=O)(O)O; target or system = human alphaherpesvirus 2; assay = virus production; system = human monocytes/macrophages; conditions = 20 µg/mL, 6 days; measurement = inhibition; result = 96%
Molecule = Oc1cccc2ccccc12; assay = fish short-term reproduction; system = Oryzias latipes, male, water, flow-through; conditions = 80.0 µg/L, end of exposure; measurement = body length; result = 39.2 ± 1.1 mm
Molecule = Ac-KKKRKV-OH (N-acetyl); system = C57BL/6J mouse; conditions = intravenous, 2 mg, 24 h; measurement = survival; result = 100%
